Published values from different studies.
Compare with care: the assays were run in different laboratories. Numbers after ± are the reported error.

The FRAP absorbance of COc1cc(CN2CCN(c3ccccc3F)CC2)c2cc3[n+](cc2c1O)CCc1cc2c(cc1-3)OCO2 is reported as 1.4 ± 0.72 a.u. (ferric reducing power, FRAP; 10 µg/mL, 30 min; higher is greater reducing power).
Under “ΔS‡ at 298.15 K”, NCC(=O)N1CCC[C@H]1C(=O)NCC(=O)NCC(=O)O is recorded as -70 ± 9 J/(mol·K) (diketopiperazine formation, transition state theory; 1-propanol; 70, 80, 90 °C, 0.5% acetic acid).
CC[C@H]1[C@@H](O)[C@@H]2[C@H](CC[C@]3(C)[C@@H]([C@H](C)CCOS(=O)(=O)[O-])CC[C@@H]23)[C@@]2(C)CC[C@@H](O)C[C@@H]12.[Na+] has an AST activity of 421 ± 16.7 U/L (ob/ob NASH mouse model, plasma; oral, 3 mg/kg once daily, before treatment, baseline of 8 week study).
Nc1nc2cnc(C(=O)N3CCOC[C@@H]3c3ccc(C(F)(F)F)cc3)cc2c2c1COC2 has an SDMA reduction of 100% (human, tumour biopsy; oral, 800 mg once daily, cycle 2; baseline: pretreatment).
Under cytokine level, COc1cc(O)c(Cl)cc1/C=C/C(=O)c1ccc(C(F)(F)F)cc1 is recorded as “decreased” (item: TNF-α, IL-6, IL-1β; mouse LPS acute lung injury, BALF; dose not given; baseline: LPS alone).
COc1cc(CN2CCN(c3ccc(Cl)cc3)CC2)c2cc3[n+](cc2c1O)CCc1cc2c(cc1-3)OCO2 gave an FRAP absorbance of 1.74 ± 0.62 a.u. (ferric reducing power, FRAP; 10 µg/mL, 30 min; higher is greater reducing power).
Under “latency of nociceptive response”, CCCOC(=O)Cc1c(C)n(C(=O)c2ccc(Cl)cc2)c2ccc(OC)cc12 is recorded as 17.8 ± 0.96 s (hot plate test; BALB/c mice; 100 mg/kg, 60 min).
CSc1nn(-c2ccccc2)c(NC(=O)/C(C#N)=C(/Nc2ccc(C)cc2)Nc2c(C)n(C)n(-c3ccccc3)c2=O)c1C#N has a mRNA level of 1.99 ± 0.18 (real-time PCR, item: COX-1; mouse, formalin test, paw tissue; dose not given, unit not given; baseline: control).
CCCCCCCCCCCCCCCC(=O)OCC(CSC[C@H](N)C(=O)N[C@@H](CO)C(=O)N[C@@H](CCCCN)C(=O)N[C@@H](CCCCN)C(=O)N[C@@H](CCCCN)C(=O)N[C@@H](CCCCN)C(=O)NCCCCCC(=O)N[C@@H](CCCCN)C(=O)N[C@@H](CC(C)C)C(=O)N[C@H](C(=O)N[C@@H](Cc1ccccc1)C(=O)N[C@@H](Cc1ccccc1)C(=O)N[C@@H](Cc1ccc2ccccc2c1)C(=O)O)C(C)C)OC(=O)CCCCCCCCCCCCCCC (stereo partly shown) — result for “OC+ TS- plaque area”: “increased” (APP/PS1 mouse; intracortical, dose not given, 2 d; baseline: vehicle).
For N[C@@H](CO)C(=O)N1CCC[C@H]1C(=O)NCC(=O)NCC(=O)O, “enthalpy of activation” read 17.2 ± 1.2 kcal/mol (diketopiperazine formation, transition state theory; 1-propanol; concentration not given, 70, 80, 90 °C, 0.5% acetic acid).
The inhibition of CC(=O)[O-].O.O.O.O.[Co+2].[O-]c1ccc(Br)cc1C=NCCN1CCOCC1 is reported as 55.7% (hydroxyl radical scavenging; 240 µM).
For O=C(OCc1ccc(F)cc1)N(Cc1cccc(CN2CCCCC2)c1)[c-]1cccc1.[Fe+2].c1cc[cH-]c1, “hydroxyl radical generation” read 6.8 fold (cell-free; concentration not given, added: H2O2; baseline: ferrocene).
For CO[C@@H](C[C@H]1C(C)=CC[C@@H]2[C@]3(C)C[C@H](O[C@@H]4O[C@@H](C)[C@H](OC(=O)c5cccc(O)c5)[C@@H](O[C@@H]5O[C@H](CO)[C@@H](O)[C@H](O)[C@H]5NC(C)=O)[C@H]4O)[C@@H](O)C(C)(C)[C@H]3CC[C@]21C)[C@H](N)C(=O)O, the potency ratio was ~3 (mixed lymphocyte reaction; mouse; baseline: cyclosporin).
Cc1ccc(C(=O)Nc2ccc(CP(=O)(O)O)cc2CP(=O)(O)O)cc1NC(=O)c1cccc(NC(=O)Nc2cccc(C(=O)Nc3cc(C(=O)Nc4ccc(CP(=O)(O)O)cc4CP(=O)(O)O)ccc3C)c2)c1 gave a PT of 16.7 ± 1.8 s (human plasma; 470 µM).
The blood glucose of COc1ccc(C2CC(c3ccc(C)cc3)=Nc3ccccc3S2)cc1OC (stereo not shown) is reported as 109 ± 4.39 mg/dL (rat, normal, overnight fasted; oral, 10 mg/kg, 120 min, oral glucose tolerance test, added: glucose 3 g/kg oral).
CCCCCCCCC/C=C/C=C/C(=O)N[C@H](C(=O)N[C@H]1C[C@@H](O)CCNC(=O)/C=C/[C@H](C)NC1=O)[C@@H](C)O — result for IL-6 secretion: “inhibited” (ELISA; splenocytes, C57BL/6 mouse; dose not given, added: LPS).
Under “cytochrome c release”, COc1cc(/C=C/C(=O)OCCCC[P+](c2ccccc2)(c2ccccc2)c2ccccc2)ccc1O is recorded as 60 pmol/mg protein (rat liver mitochondria; 10 µM, 15 min).
CCCCCCCCCCCCCCc1sc(NC(=O)CN2CCC(O)CC2)nc1-c1ccccc1: “inhibition in vivo” 44.2% (paw oedema; mouse; intraperitoneal, 200 µmol/kg).
O=C(OCc1cccc(O)c1O)c1ccc(O)c(CO)c1: “time to blood pressure rise” ≤ 24 h (C57BL/6J mice; dose not given, after withdrawal day 1-7, added: angiotensin II infusion).
FC(F)(F)Oc1ccc(/N=c2\oc3ccccc3cc2-c2ccccc2)cc1 has an oedema reduction of 47.6 ± 3.1% (rat, formalin paw oedema; intraperitoneal, 20 mg/kg, 2 h).
For COc1ccc(C2CC(c3ccc(C)cc3)=Nc3ccccc3S2)cc1 (stereo not shown), the HDL cholesterol was 55.2 ± 3.67 mg/dL (Wistar rat, STZ-induced diabetes, serum; 20 mg/kg, 28 days).
The oedema reduction of FC(F)(F)c1ccccc1/N=c1\oc2ccccc2cc1-c1ccccc1 is reported as 42.7 ± 1.6% (rat, formalin paw oedema; intraperitoneal, 10 mg/kg, 4 h).
With COc1cc2c(cc1OC)-c1cc3ccc(OC)c(OC)c3c[n+]1CC2 the HDL cholesterol was 35.4 ± 1.71 mg/dL (rat, STZ-induced diabetic, serum; oral, 12 mg/kg, day 28).
Under “enthalpy of activation”, CC[C@H](C)[C@H](N)C(=O)N1CCC[C@H]1C(=O)NCC(=O)NCC(=O)O is recorded as 17.9 ± 1.43 kcal/mol (diketopiperazine formation, transition state theory; 1-propanol; concentration not given, 70, 80, 90 °C, 0.5% acetic acid).
With CC#N.O=S(=O)([O-])C(F)(F)F.O=S(=O)([O-])C(F)(F)F.Oc1ccc(O)c(CN(CCN(Cc2ccccn2)Cc2ccccn2)Cc2ccccn2)c1.[Mn+2] the log kcat was 7.99 (superoxide dismutation, stopped-flow).
Under “hydroxyl radical scavenging”, CCOC(=O)Cc1csc(NC(=O)CCN2CCC(O)CC2)n1 is recorded as 87% (Fe3+/ascorbic acid system; concentration not given, 30 min, 37 °C, added: DMSO 33 mM).
For CC(=O)Nc1ccc(OC(=O)CCC(=O)[O][Pt-2]23([O]C(=O)CCC(=O)Oc4ccc(NC(C)=O)cc4)([NH2+][C@@H]4CCCC[C@H]4[NH2+]2)[O]C(=O)C(=O)[O]3)cc1, “mature dendritic cells” read 36.7% (BALB/c mouse, 4T1 tumour, lymph nodes; dose not given).
The GLP-1 release of O=C1NC(=O)C(C2CCOc3cc(Oc4ccc(C(F)(F)F)cc4Cl)ccc32)S1 (stereo not shown) is reported as 1.1 ± 0.06 fold change (item: total GLP-1; colonic crypt cultures, Gpr40 knockout, mouse, ex vivo; 1 µM, 2 h; baseline: vehicle).
COc1c2c(cc3oc(COC4OC(CO)C(O)C(O)C4O)cc(=O)c13)OC(C(C)(C)O)C2 (stereo not shown): “hot plate latency” 10.6 ± 1.38 s (analgesia; mouse; oral, 1 mg/kg, 2 h).
Under “final body weight”, CCCCCCCCCCCCCCCC(=O)NCCCC[C@H](N)C(=O)N[C@@H](CC(=O)O)C(=O)N[C@H](C(=O)N[C@@H](Cc1c[nH]cn1)C(=O)N[C@@H](Cc1ccccc1)C(=O)N[C@@H](CCCNC(=N)N)C(=O)N[C@H](C(=O)N[C@@H](Cc1ccccc1)C(=O)N[C@@H](CCCNC(=N)N)C(=O)N[C@@H](CO)C(=O)N[C@@H](Cc1c[nH]cn1)C(=O)N[C@@H](CO)C(=O)N[C@@H](CC(=O)O)C(=O)N[C@@H](Cc1ccc(O)cc1)C(=O)N[C@@H](CCCNC(=N)N)C(=O)N[C@@H](CCCNC(=N)N)C(=O)N[C@H](C(=O)O)[C@@H](C)CC)[C@@H](C)O)[C@@H](C)O is recorded as 21.6 ± 0.9 g (C57BL/6J mouse, MCD diet; intraperitoneal, 1.2 nmol/g, 3 weeks, 3 times weekly).
For C=C(c1ncc(C(=O)O)cn1)c1cc2c(cc1C)C(C)(C)CCC2(C)C, “log2 fold change” read -0.65 (RNA sequencing, item: Arl11 mRNA; rat, brain; dose not given, 24 h, single dose; baseline: vehicle).
Under “ΔS‡ at 298.15 K”, N[C@@H](CC(=O)O)C(=O)N1CCC[C@H]1C(=O)NCC(=O)NCC(=O)O is recorded as -82 ± 1 J/(mol·K) (diketopiperazine formation, transition state theory; 1-propanol; 70, 80, 90 °C, 0.5% acetic acid).
CCCC[C@H](NC(=O)[C@H](C)NC(=O)[C@H](CO)NC(=O)[C@H](CC(C)C)NC(=O)[C@H](CCCCN)NC(=O)[C@]1(C)CCCC=CCCCCCC[C@@](C)(NC(=O)[C@H](CCC(=O)O)NC(=O)[C@H](CC(C)C)NC(=O)[C@H](CO)NC(=O)[C@H](CCC(N)=O)NC(=O)[C@@H](NC(=O)[C@H](CCCC)NC(=O)[C@H](CCC(=O)O)NC(=O)[C@H](CCCNC(=N)N)NC(=O)[C@H](CCC(N)=O)NC(=O)[C@H](CC(C)C)NC(=O)[C@H](CC(C)C)NC(=O)[C@H](CS)NC(=O)[C@H](CCC(N)=O)NC(=O)[C@H](C)NC(=O)[C@H](CCCNC(=N)N)NC(C)=O)C(C)C)C(=O)N[C@@H](CCC(N)=O)C(=O)N[C@@H](CC(C)C)C(=O)N[C@@H](C(C)C)C(=O)N[C@@H](CC(C)C)C(=O)N[C@@H](CCC(=O)O)C(=O)N[C@@H](CCCCN)C(=O)N1)C(=O)N[C@@H](CCC(N)=O)C(=O)N[C@@H](C)C(=O)N[C@@H](Cc1c[nH]cn1)C(N)=O: “Tcon cell proliferation” 90.7% (Treg-mediated suppression, flow cytometry; Treg and Tcon cells, mouse; dose not given, 3 d, Treg:Tcon 1:1).
Under “blood glucose and lactate”, CCOC(=O)[C@H](C)NP(=O)(N[C@@H](C)C(=O)OCC)c1ccc(-c2nc(N)sc2CC(C)C)o1 is recorded as “no effect” (FBP1 G27P knock-in mice, blood; intraperitoneal, 75 mg/kg).
Oc1ccc2nc1CNCCNCCNC2 — result for “log beta MHL”: 13 (pH-potentiometric titration; 298 K, I 0.15 M NaCl, added: Ca2+).
For CC(C)CN(CC(C)C)C(=O)/C=C/C=C/c1ccc2c(c1)OCO2, “time in open arms” read 45.1 ± 5.7% (elevated plus maze; C57BL/6N mice; ip, 1 mg/kg, 30 min before test; baseline: total time).
COc1cc2c(C=C3C(=O)Nc4ccccc43)c[nH]c2cc1C — result for “hollow fiber SC score”: 6 (mouse, 12 tumour cell lines in fibres; intraperitoneal, 150 and 100.5 mg/kg daily, 4 days; direction not given).

Excerpt of the above:
For N[C@@H](CO)C(=O)N1CCC[C@H]1C(=O)NCC(=O)NCC(=O)O, “enthalpy of activation” read 17.2 ± 1.2 kcal/mol (diketopiperazine formation, transition state theory; 1-propanol; concentration not given, 70, 80, 90 °C, 0.5% acetic acid).
The inhibition of CC(=O)[O-].O.O.O.O.[Co+2].[O-]c1ccc(Br)cc1C=NCCN1CCOCC1 is reported as 55.7% (hydroxyl radical scavenging; 240 µM).
For O=C(OCc1ccc(F)cc1)N(Cc1cccc(CN2CCCCC2)c1)[c-]1cccc1.[Fe+2].c1cc[cH-]c1, “hydroxyl radical generation” read 6.8 fold (cell-free; concentration not given, added: H2O2; baseline: ferrocene).
For CO[C@@H](C[C@H]1C(C)=CC[C@@H]2[C@]3(C)C[C@H](O[C@@H]4O[C@@H](C)[C@H](OC(=O)c5cccc(O)c5)[C@@H](O[C@@H]5O[C@H](CO)[C@@H](O)[C@H](O)[C@H]5NC(C)=O)[C@H]4O)[C@@H](O)C(C)(C)[C@H]3CC[C@]21C)[C@H](N)C(=O)O, the potency ratio was ~3 (mixed lymphocyte reaction; mouse; baseline: cyclosporin).
Cc1ccc(C(=O)Nc2ccc(CP(=O)(O)O)cc2CP(=O)(O)O)cc1NC(=O)c1cccc(NC(=O)Nc2cccc(C(=O)Nc3cc(C(=O)Nc4ccc(CP(=O)(O)O)cc4CP(=O)(O)O)ccc3C)c2)c1 gave a PT of 16.7 ± 1.8 s (human plasma; 470 µM).
The blood glucose of COc1ccc(C2CC(c3ccc(C)cc3)=Nc3ccccc3S2)cc1OC (stereo not shown) is reported as 109 ± 4.39 mg/dL (rat, normal, overnight fasted; oral, 10 mg/kg, 120 min, oral glucose tolerance test, added: glucose 3 g/kg oral).
